Experimental data collected from several papers.
Protocols differ between the studies behind these lines. Numbers after ± are the reported error. ≈ marks a conversion by molar mass, not a printed value. Where no end group is shown, it is not given here.

CC(=NNC(=O)CN1c2c(-c3ccccc3)n[nH]c2-c2ccccc2S1(=O)=O)c1ccc(C)o1
EC90 (HIV-1; viral replication; PBMC): > 100 µM

CC[C@H](C)CCCCC(=O)N[C@@H](CCN)C(=O)N[C@H](C(=O)N[C@@H](CCN)C(=O)N[C@H]1CCNC(=O)[C@H]([C@@H](C)O)NC(=O)[C@H](CCN)NC(=O)[C@H](CCN)NC(=O)[C@H](CC(C)C)NC(=O)[C@@H](Cc2ccccc2)NC(=O)[C@H](CCN)NC1=O)[C@@H](C)O
time to defervescence (Klebsiella pneumoniae; human; intravenous, 2 mg/kg every 12 h, with: amikacin once daily): ≤ 24 h

CCCCCOc1c(OC)cc(NC(C)CCCNC(=O)C(N)Cc2cc3ccccc3[nH]2)c2nc(C(C)(C)C)ccc12 (stereo not drawn)
IC50 (Staphylococcus aureus; microbial growth; ATCC33591 MRSA; drug-resistant strain): 1.95 µg/mL (≈ 3.32 µM)

CCCc1ccc(O)c(OC)c1
LD50 (Spodoptera frugiperda; insecticidal activity; larvae; topical): 2020 mg/kg

O=C(NCC1CCNCC1)c1cc2ccc(-c3ccoc3)cc2[nH]1
inhibition (Zika virus; viral replication; U-87 MG, FLR; 1 µM): 68%

DVDHVFLRF-NH2 (C-amide)
inhibition (Drosophila melanogaster; gut contraction; wandering third instar larval gut; injection, 1 µM, within 10 min; relative to: DMS effect): 17%

CC[C@H](C)[C@H](NC(=O)[C@H](CCCCN)NC(=O)[C@H](CCC(=O)O)NC(=O)[C@H](CCCCN)NC(=O)[C@H](CO)NC(=O)[C@H](CCCCN)NC(=O)[C@H](CCCNC(=N)N)NC(=O)[C@H](Cc1ccccc1)NC(=O)[C@H](Cc1ccccc1)NC(=O)[C@H](CC(=O)O)NC(=O)CNC(=O)[C@H](CC(C)C)NC(=O)[C@@H](N)CC(C)C)C(=O)NCC(=O)N[C@@H](CCCCN)C(=O)N[C@@H](CCC(=O)O)C(=O)N[C@@H](Cc1ccccc1)C(=O)N[C@@H](CCCCN)C(=O)N[C@@H](CCCNC(=N)N)C(=O)N[C@H](C(=O)N[C@H](C(=O)N[C@@H](CCC(N)=O)C(=O)N[C@@H](CCCNC(=N)N)C(=O)N[C@H](C(=O)N[C@@H](CCCCN)C(=O)N[C@@H](CC(=O)O)C(=O)N[C@@H](Cc1ccccc1)C(=O)N[C@@H](CC(C)C)C(=O)N[C@@H](CCCNC(=N)N)C(=O)N[C@@H](CC(N)=O)C(=O)N[C@@H](CC(C)C)C(=O)N[C@H](C(=O)N1CCC[C@H]1C(=O)N[C@@H](CCCNC(=N)N)C(=O)N[C@H](C(=O)N[C@@H](CCC(=O)O)C(=O)N[C@@H](CO)C(=O)O)[C@@H](C)O)C(C)C)[C@@H](C)CC)C(C)C)[C@@H](C)CC
MIC ratio (Staphylococcus aureus; JE2 SAUSA300_0646 graS transposon mutant; 12.5% TSB; relative to: wild type over mutant): 2 fold

CCCCCCCOc1c(OC)cc(NC(C)CCCNC(=O)C(N)CCSC)c2nc(C(C)(C)C)ccc12 (stereo not drawn)
MBC (Staphylococcus aureus; microbial killing; ATCC33591 MRSA; drug-resistant strain): 10 µg/mL (≈ 17.8 µM)

Cc1ccccc1-c1nc(CN2CCC(C(=O)NCCN3CCOCC3)CC2)c(C)o1
maximal response (Hepatitis C virus; HCV infection, Gaussia luciferase reporter; Huh7.5.1 reporter cells; relative to: 10 µM cyclosporin A, DMSO, negative means inhibition): -27.8%

DGEA
viral yield (rhesus rotavirus; peptide, mouse cholangiocytes; 1 mM, cell pretreatment; relative to: serum-free medium): inhibited

CP(=O)(O)CCC(N)C(=O)O (stereo not drawn)
herbicidal activity (Amaranthus palmeri; 500 g/ha, 13 days, AMAPA, post-emergence spray; relative to: untreated (0%), complete kill (100%)): 100%

LSTFFRLFNGRRRRSVQWCA
biofilm growth (Streptococcus sanguis; OD600; peptide, ATCC 49295, 4 h single-species biofilm; 128 µg/ml, 5 min exposure, OD600 read over 5 h): no effect

COC(=O)N[C@H](C(=O)N1CCC[C@H]1c1ncc(-c2ccc(-c3ccc(-c4cnc([C@@H]5CCCN5C(=O)[C@@H](NC(=O)OC)C(C)C)[nH]4)cc3)cc2)[nH]1)C(C)C
EC50 (hepatitis C virus; viral replication, transient replicon; genotype 1a NS5A Y93C): 11 ± 4 nM

CCCCOc1c(OC)cc(NC(C)CCCNC(=O)C(N)CCCN)c2nc(C(C)(C)C)ccc12 (stereo not drawn)
MBC (Staphylococcus aureus; MRSA ATCC 33591): > 20 µg/mL

CN[C@@](C)(C[18F])C(=O)O
tracer uptake (A549 tumour model; host not given, pancreas; 15 min, tumour-bearing): 56 %ID/g
